Experimental data from different studies.
Numbered parts are unrelated; each lists some results of a single study.

Set 1
Target: TAR DNA-binding protein 43, full length, His tag (TARDBP, Homo sapiens, UniProt Q13148, residues 1-414)
Method: RNA Bind-n-Seq
Form: RNA
Matrix: in vitro
Concentration: 20 nM
Notes: 6-mer, flanks averaged, single round
With: 150 mM KCl
Reference: input library
Direction: higher = stronger binding
Measurement: 6-mer enrichment (R)
GAUCGU: 0.782
GGCAGC: 1.72
AACCAC: 0.615
GUUGGU: 1.16
UAUGAC: 0.659
AGCAGG: 1.7
UCUAAG: 0.644
GCUAGG: 1.73
UUCCCU: 0.607
ACGCGU: 0.833
AAAGUG: 0.881
GGAGCG: 3.91
UGUAAU: 0.681
CGUUAA: 0.574
UACGUA: 0.65
CGACCU: 0.623
UGGUAA: 0.819
AUAAUA: 1.26
AUCUUG: 0.619

Set 2
Target: RNA binding protein fox-1 homolog 2, RRM domain, GST-SBP tag (RBFOX2, Homo sapiens, UniProt O43251-10, residues 100-194)
Method: RNA Bind-n-Seq
Form: RNA
Matrix: in vitro
Concentration: 365 nM
Notes: natural RNA segment, single round, ends assumed
Reference: no-protein control
Direction: higher = stronger binding
Measurement: RBNS enrichment (R)
All sequences stand within: GGGAGUUCUACAGUCCGACGAUC … UGGAAUUCUCGGGUGCCAA
GCAUCGGGAAAGAAGAAACUCCGAAGAAAAGAAUUUUAGUGUUAAUGACUCUUUCUGAAGGAAGAGAAGACAUUUGCCUUUUGUUAAAAGAUGGUAAACCAGAUCUGUCU: 0.616
AGUUAAUAACGAAUGCUGUUUCAAACAUAACCAAUCUGAUCAUUUUUGGAGAACGAUUCACUUAUGAAGACACCGAUUUUCAGCACAUGAUUGAGUUAUUUAGUGAAAAU: 1.28
UUCCGAGCUGGCGGACUGCCCAGGGGCCAUCAGAGGAUGGUGGUGCUGCUGCUGAUCCGGGGACCGCUGUCUUCCCUCCCAUACGCCUUUCAUCCCUCCUUCUAGGGCCU: 0.468
UCUAACCUGAAGAUGCUGAGGAAGGAGCCUAUUGGUGCAACCUAGGUUGGUGAUCCAUUGGGUGGAUCAGGACGGAACUCUGUGUCCCCAGGUCUCAGGAGUGCCAUCCC: 0.437
UAGCACAAAUCGAACUUAGGAUUUGUUUCUUCUCUUCUGUGUUUCGAUUUUUGAUCAAUUCUUUAAUUUUGGAAGCCUAUAAUACAGUUUUCUAUUCUUGGAGAUAAAAA: 0.367
GUCCACAAAACUGAUGUUCUUUUGGGGUUUUAUGUACAGACUUGUCCAAUCAUGUGUGUGGUUCCUGCGAGUUGCUGAUGACUCCGCAUUGAAGCUCUCUGAGUUCUUUG: 0.624
AGCUGGGCCCAGUUUGGCCAUGCCUGCUGGCACAGACGCCUUAACUGUGUGGAUGACUGUGUGACUGGGAGCCUGGACCGGCUGACAGGCCAUGAGCUACCCACUGGCAU: 1.77
CUGCUGUUCCUUGGUCUCUAAUCACCUGAGCUGGGUAAAGGGGAUUCUGGGAGUUGAGAGCUCUGCCAGGGUGAGAUGUUUCCUGAAGAGAGGUUCCCCACCCCUGUAAC: 2.34

Set 3
Target: Interferon regulatory factor 3, full length, phosphomimetic (IRF3, Homo sapiens, UniProt Q14653, residues 1-427, S386D/S396D/S398D/S402D/T404D/S405D)
Method: protein-binding microarray
Form: double-stranded DNA, one strand shown
Matrix: in vitro
Concentration: 2540 nM top
Notes: 60-bp whole probe
With: salmon DNA 0.4 mg/ml
Reference: random background probes
Direction: higher = stronger binding
Measurement: fitted relative affinity
All sequences stand within: GCCTAGCAC … GTCTTGATTCGCTTGACGCTGCTG
Construct (chain): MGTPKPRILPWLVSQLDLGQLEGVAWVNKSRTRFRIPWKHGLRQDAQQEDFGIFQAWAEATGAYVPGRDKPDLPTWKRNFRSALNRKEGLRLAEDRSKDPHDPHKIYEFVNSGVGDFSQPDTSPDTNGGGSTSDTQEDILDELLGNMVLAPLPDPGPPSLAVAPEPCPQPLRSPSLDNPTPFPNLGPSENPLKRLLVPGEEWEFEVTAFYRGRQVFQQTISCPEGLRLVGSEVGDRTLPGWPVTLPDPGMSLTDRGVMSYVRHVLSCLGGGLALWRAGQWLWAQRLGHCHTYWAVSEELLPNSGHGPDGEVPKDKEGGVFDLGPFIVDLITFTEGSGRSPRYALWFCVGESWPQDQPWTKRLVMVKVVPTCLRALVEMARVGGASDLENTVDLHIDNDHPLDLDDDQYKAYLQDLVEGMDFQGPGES
GTAGATCTCAGACTGGATTAGTGCTAG: 0.0552 z-score
TTAGAACTGGGTATCGATTAGTGCTAG: -0.148 z-score
TCATCCTCCTCTCTCTTACTGTGCTAG: 1.05 z-score
GACGGATTCGGTTTCGGGACGTGCTAG: 6.28 z-score
GACGGTATCGGTCTCGGGACGTGCTAG: 4.38 z-score
GACGGTCTCCATTTCCTGACGTGCTAG: 3.13 z-score
GACGATTTCAGTTCCGAAACGTGCTAG: 4 z-score
TTAGGACTGAGGTTTCGGTTAGTGCTA: 3.3 z-score
AACGGTTCCGGTTTCGGGACGTGCTAG: 6.37 z-score
TCAAGCATTACTTTAGGACTGTGCTAG: -0.407 z-score
TTATGTTTCGGTATCGGTTAGTGCTAG: 7.44 z-score
TTAGAGATCAGACTGGATTAGTGCTAG: -0.344 z-score
TTTGAACTGAGTCTCGATTAGTGCTAG: -0.218 z-score
GCCGATTTCGGGTATCGAGACGTGCTA: 2.37 z-score

Set 4
Target: Histone acetyltransferase KAT6A, winged helix 2, GST fusion (KAT6A, Homo sapiens, UniProt Q92794, residues 85-181)
Method: protein binding microarray
Form: double-stranded DNA, one strand shown
Matrix: in vitro
Concentration: not given
Notes: 8-mer, flanks averaged, mean of 2 arrays, mostly near background
Reference: not given
Direction: higher = stronger binding
Measurement: E-score
Construct (chain): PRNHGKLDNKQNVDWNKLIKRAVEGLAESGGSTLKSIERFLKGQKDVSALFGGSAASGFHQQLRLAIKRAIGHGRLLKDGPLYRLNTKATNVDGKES
CGGTTGGA: -0.00369
CCCTGTAC: -0.111
CTCCCGAG: 0.07
AACCTGAC: -0.134
CGAGTTCC: 0.07
AATCCTAT: -0.0865
CACCGGGG: -0.0123
TAAGTGAA: -0.0163
AGGATTAC: -0.101
AACTACCG: 0.00844
GCAGAAGC: 0.195
ATGGCGGA: 0.0725
CACGCGGA: 0.14
GCGGCAAC: 0.152
ATGAATTG: -0.0997
CTCTGACC: -0.0526

For quick reference, copied from above (set 4):
ATGGCGGA: 0.0725
AATCCTAT: -0.0865
AACTACCG: 0.00844
ATGAATTG: -0.0997
CGAGTTCC: 0.07
AGGATTAC: -0.101
CTCTGACC: -0.0526
CTCCCGAG: 0.07
